Assay results gathered from unrelated publications.
Protocols differ between the studies behind these lines. Numbers after ± are the reported error.
PI4KA: Phosphatidylinositol 4-kinase alpha (PI4KA, Homo sapiens, UniProt P42356)
Sequence of UniProt P42356 (whole entry, looked up): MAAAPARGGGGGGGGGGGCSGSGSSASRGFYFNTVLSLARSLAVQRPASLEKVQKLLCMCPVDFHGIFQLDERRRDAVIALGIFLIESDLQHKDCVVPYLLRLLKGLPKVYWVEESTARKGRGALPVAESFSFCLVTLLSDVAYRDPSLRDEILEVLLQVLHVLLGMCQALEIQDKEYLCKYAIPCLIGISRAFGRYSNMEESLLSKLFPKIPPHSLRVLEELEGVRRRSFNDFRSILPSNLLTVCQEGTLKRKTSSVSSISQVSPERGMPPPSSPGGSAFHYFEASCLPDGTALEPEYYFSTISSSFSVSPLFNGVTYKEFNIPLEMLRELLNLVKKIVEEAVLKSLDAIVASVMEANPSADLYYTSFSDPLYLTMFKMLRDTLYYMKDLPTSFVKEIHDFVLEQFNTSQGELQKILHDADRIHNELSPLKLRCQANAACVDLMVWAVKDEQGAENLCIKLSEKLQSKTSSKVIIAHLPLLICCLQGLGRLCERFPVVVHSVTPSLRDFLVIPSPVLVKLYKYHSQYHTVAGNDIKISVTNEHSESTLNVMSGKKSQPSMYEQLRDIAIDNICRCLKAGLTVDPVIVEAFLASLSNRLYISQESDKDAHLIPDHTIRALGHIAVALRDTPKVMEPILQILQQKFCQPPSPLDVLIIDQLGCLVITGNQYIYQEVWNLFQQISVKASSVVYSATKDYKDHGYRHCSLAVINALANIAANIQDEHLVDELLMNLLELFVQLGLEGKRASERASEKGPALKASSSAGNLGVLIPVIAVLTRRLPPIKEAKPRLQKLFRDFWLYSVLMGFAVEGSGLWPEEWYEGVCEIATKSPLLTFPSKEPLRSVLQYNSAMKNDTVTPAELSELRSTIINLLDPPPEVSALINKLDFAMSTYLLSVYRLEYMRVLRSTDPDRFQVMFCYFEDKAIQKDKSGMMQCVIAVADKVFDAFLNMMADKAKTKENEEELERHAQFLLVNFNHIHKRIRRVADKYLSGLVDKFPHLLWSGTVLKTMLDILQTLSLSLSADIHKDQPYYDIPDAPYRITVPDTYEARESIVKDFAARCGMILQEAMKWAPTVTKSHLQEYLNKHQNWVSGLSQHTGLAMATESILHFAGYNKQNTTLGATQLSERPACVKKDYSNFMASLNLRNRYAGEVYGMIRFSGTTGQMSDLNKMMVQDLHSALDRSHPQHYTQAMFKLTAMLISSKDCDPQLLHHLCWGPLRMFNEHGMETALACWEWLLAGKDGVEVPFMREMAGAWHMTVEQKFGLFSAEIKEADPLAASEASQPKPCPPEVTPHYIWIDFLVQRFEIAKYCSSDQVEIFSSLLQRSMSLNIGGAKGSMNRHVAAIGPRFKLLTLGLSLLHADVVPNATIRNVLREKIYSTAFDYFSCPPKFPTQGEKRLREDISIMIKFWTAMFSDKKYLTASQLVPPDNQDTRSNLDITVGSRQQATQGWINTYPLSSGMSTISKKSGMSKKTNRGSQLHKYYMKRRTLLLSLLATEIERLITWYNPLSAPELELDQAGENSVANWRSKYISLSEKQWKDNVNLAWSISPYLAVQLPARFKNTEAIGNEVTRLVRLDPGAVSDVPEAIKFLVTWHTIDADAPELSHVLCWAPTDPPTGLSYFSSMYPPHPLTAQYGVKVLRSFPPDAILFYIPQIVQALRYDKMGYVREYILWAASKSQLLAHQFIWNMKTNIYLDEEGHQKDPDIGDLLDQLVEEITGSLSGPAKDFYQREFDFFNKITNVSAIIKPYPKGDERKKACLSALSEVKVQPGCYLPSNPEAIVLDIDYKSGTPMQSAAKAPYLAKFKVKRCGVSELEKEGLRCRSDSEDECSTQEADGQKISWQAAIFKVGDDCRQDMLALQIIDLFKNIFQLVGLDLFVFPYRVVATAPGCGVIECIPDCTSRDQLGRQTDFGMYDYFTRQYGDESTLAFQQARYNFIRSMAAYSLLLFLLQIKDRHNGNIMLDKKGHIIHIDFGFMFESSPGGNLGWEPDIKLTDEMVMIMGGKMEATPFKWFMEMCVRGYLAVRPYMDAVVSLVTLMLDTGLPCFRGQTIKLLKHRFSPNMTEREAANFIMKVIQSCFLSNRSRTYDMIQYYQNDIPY
PPARG: Peroxisome proliferator-activated receptor gamma (PPARG, Homo sapiens, UniProt P37231)
Sequence of UniProt P37231 (whole entry, looked up): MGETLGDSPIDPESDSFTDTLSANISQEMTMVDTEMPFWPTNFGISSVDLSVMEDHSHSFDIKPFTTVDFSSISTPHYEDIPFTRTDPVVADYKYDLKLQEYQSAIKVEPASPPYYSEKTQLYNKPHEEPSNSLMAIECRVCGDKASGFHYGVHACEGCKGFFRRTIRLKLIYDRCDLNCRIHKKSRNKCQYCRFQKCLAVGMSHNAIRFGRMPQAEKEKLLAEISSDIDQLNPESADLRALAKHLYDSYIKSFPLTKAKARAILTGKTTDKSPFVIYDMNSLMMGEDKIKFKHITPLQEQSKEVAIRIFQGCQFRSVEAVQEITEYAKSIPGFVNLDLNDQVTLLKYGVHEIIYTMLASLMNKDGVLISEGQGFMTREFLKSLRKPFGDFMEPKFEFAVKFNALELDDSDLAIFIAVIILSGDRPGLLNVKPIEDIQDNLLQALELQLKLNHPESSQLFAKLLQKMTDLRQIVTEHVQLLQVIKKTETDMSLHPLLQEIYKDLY
Rhomboid protease AarA: Rhomboid protease AarA (Providencia stuartii, UniProt P46116)
Sequence of UniProt P46116 (whole entry, looked up): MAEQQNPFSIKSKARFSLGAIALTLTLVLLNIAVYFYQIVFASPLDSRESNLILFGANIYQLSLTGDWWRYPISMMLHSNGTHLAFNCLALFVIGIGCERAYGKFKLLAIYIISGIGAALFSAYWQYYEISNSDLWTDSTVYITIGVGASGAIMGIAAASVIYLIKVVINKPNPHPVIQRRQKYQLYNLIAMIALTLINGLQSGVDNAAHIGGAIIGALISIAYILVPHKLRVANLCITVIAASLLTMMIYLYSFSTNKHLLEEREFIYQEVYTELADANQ
Sequence of UniProt Q13547 (whole entry, looked up): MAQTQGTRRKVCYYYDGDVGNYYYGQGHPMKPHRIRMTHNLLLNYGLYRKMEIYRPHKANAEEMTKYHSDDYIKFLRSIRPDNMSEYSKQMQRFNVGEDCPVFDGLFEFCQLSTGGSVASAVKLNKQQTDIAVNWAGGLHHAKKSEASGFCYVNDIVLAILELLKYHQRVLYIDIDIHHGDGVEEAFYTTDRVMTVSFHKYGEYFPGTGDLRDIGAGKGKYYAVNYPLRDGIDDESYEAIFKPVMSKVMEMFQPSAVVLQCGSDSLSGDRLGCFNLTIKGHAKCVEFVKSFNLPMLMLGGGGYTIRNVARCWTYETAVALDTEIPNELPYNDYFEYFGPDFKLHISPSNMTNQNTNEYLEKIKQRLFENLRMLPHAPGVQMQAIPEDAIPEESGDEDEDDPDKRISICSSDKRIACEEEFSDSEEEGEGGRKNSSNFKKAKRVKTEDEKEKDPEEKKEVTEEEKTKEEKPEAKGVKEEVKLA
Sequence of UniProt O15297 (whole entry, looked up): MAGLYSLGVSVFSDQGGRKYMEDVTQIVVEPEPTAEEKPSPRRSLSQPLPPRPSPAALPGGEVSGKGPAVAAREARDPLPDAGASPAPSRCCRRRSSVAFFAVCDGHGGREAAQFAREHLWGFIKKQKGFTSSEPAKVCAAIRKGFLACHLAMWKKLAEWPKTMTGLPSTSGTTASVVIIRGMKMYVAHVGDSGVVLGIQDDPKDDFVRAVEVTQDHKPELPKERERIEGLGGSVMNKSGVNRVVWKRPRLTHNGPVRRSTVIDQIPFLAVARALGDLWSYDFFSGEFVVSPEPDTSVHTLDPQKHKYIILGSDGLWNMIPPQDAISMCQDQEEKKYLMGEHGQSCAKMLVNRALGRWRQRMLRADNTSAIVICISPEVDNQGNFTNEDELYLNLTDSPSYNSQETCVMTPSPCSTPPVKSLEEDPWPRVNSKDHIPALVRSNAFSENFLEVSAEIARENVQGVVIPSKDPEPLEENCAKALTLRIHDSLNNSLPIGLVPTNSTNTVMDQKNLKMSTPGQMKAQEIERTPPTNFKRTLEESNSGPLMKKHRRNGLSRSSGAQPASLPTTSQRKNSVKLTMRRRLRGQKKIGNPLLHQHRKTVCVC
Sequence of UniProt P51692 (whole entry, looked up): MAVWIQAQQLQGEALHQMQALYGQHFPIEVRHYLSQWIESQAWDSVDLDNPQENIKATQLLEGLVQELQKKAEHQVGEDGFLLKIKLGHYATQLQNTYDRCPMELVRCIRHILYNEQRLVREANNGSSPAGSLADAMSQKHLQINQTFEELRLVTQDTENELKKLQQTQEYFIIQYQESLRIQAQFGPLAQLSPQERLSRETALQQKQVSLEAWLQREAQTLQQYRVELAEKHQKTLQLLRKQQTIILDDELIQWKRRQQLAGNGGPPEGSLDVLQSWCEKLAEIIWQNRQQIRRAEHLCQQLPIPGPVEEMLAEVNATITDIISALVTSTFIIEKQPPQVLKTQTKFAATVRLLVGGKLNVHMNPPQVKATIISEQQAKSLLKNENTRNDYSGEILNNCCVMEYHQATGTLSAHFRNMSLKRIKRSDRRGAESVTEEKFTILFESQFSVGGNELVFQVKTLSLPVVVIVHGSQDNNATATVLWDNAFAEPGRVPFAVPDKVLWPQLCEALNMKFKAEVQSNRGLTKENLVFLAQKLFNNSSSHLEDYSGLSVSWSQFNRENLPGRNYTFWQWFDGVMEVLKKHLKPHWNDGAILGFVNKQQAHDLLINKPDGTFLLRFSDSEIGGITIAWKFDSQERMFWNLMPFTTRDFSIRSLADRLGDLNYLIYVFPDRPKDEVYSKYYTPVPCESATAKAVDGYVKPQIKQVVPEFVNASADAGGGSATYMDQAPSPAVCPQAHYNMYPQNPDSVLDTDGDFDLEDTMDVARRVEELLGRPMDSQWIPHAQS

Compound	target	assay	system	setting	IC50
CN1CCN(C(=O)c2ccc(-c3cc4nccc(-c5ccc6cnccc6c5)c4o3)cc2)CC1	PI4KA	enzyme activity, inhibitor			3 µM
COC(=O)CCCCCCC(=O)Nc1ccc(Nc2ncc(F)c(-c3cc(F)c4nc(C)n(C(C)C)c4c3)n2)cc1	HDAC1 (Homo sapiens, UniProt Q13547)	enzyme activity, inhibitor			> 1 µM
Cc1c(Cc2cccc(OC(C)C(=O)O)c2)c2ccc(C(=O)NC(C)c3cccc(C(C)(C)C)c3)cc2n1C (mixture of isomers)	Peroxisome proliferator-activated receptor gamma, ligand-binding domain (PPARG, Homo sapiens, UniProt P37231)	reporter gene, luciferase reporter	HEK293T, Gal4-PPARγ LBD		1020 µM
COc1c(Cl)cccc1Nc1c(-c2ccncc2C#C[C@@]2(C)CCCN2C(=O)/C=C/CN(C)C)[nH]c2c1C(=O)NCC2	ERBB4 (Homo sapiens, UniProt Q15303)				0.027 µM
CC[C@H](C)[C@@H]1NC(=O)[C@H](Cc2ccc(O)cc2)NC(=O)CSC[C@@H](C(N)=O)NC(=O)[C@H](CC(N)=O)NC(=O)[C@H](Cc2c[nH]cn2)NC(=O)[C@H](Cc2ccc(O)cc2)NC(=O)[C@H](CC(=O)O)NC(=O)[C@H](Cc2ccc(I)cc2)NC(=O)[C@H](CC(C)C)NC(=O)[C@H](CCCNC(=N)N)NC1=O	Melanoma-associated antigen 4, MAGE homology domain (Homo sapiens, UniProt P43358)	binding, inhibitor, TR-FRET displacement		together with: Alexa647-MTP-1	0.108 ± 0.0093 µM
CN(C)c1ccc2c(-c3cc(C(=O)NCCNC(=O)[C@H](CC4CCCCC4)NC(=O)c4ccc(CNc5ccccn5)s4)ccc3C(=O)O)c3ccc(=[N+](C)C)cc-3oc2c1	PPM1D (Homo sapiens, UniProt O15297)	enzyme activity, inhibitor			0.327 µM
Cc1nn(-c2cccc(N)c2)c(=O)c2cnc(Nc3ccc(N4CCNCC4)cc3)nc12	PI4KA	enzyme activity, inhibitor			> 10 µM
Cc1c(Cc2ccc(OC(C)C(=O)O)cc2)c2ccc(C(=O)N[C@@H](C)c3ccc(C(C)C)cc3)cc2n1C (stereo partly shown)	PPARG	ligand displacement, TR-FRET			0.971 µM
O=C(COc1cccc2ccccc12)NCc1ccc(OP(=O)(O)O)c(OP(=O)(O)O)c1	Signal transducer and activator of transcription 5B, SH2 (STAT5B, Homo sapiens, UniProt P51692)	ligand displacement, FP			0.55 µM
Cc1c(Cc2ccc(Cl)c(O[C@@H](C)C(=O)O)c2)c2ccc(C(=O)N[C@@H](C)c3ccc(C(C)(C)C)cc3)cc2n1CC1CC1	PPARG	ligand displacement, TR-FRET			0.00035 µM
N#Cc1ccc(-c2ccc(NC(=O)C(C(F)(F)F)C(F)(F)F)cc2)cc1	Rhomboid protease AarA	enzyme activity, inhibitor, fluorescence			9.2 µM
CCCSc1nc(Sc2nnnn2C)c2nnn(CCO)c2n1	KDM1A (Homo sapiens, UniProt O60341)	enzyme activity, inhibitor, fluorescence			0.598 µM
Cc1c(Cc2ccc(OC(C)C(=O)O)cc2)c2ccc(C(=O)NC(C)c3ccc(C(C)(C)C)cc3)cc2n1C (mixture of isomers)	PPARG	ligand displacement, TR-FRET			0.0712 µM
COCCOc1ccccc1NC(=O)C(C(F)(F)F)C(F)(F)F	Rhomboid protease AarA	enzyme activity, inhibitor, fluorescence			7.2 µM
CCn1c(C)c(Cc2cccc(OC(C)(C)C(=O)O)c2)c2ccc(C(=O)N[C@@H](C)c3cccc(C(C)(C)C)c3)cc21	PPARG	ligand displacement, TR-FRET			0.004 µM
COc1c(Cl)cccc1NC(=O)C(C(F)(F)F)C(F)(F)F	Rhomboid protease AarA	enzyme activity, inhibitor, fluorescence			5 µM

A few entries again:
Compound	target	assay	system	setting	IC50
Cc1c(Cc2ccc(OC(C)C(=O)O)cc2)c2ccc(C(=O)N[C@@H](C)c3ccc(C(C)C)cc3)cc2n1C (stereo partly shown)	PPARG	ligand displacement, TR-FRET			0.971 µM
O=C(COc1cccc2ccccc12)NCc1ccc(OP(=O)(O)O)c(OP(=O)(O)O)c1	Signal transducer and activator of transcription 5B, SH2 (STAT5B, Homo sapiens, UniProt P51692)	ligand displacement, FP			0.55 µM
